Measurements collected from several papers.
Protocols differ between the studies behind these lines. Numbers after ± are the reported error.

With `COc1ccnc(C[S+]([O-])c2nc3cc(-n4cccc4)ccc3[nH]2)c1C` (stereo not drawn) the Cmax ratio was 1.96 (male Sprague Dawley rats, plasma; oral, 1 mg/kg ilaprazole racemate; relative to: compound over R-ilaprazole).
The remaining compound of `COc1cc(NC(C)=O)c2c(c1O)-c1c(OC)c(OC)cc3c1C(C2)N(C)CC3` (stereo not drawn) is reported as 105 ± 3.8% (rat heart homogenate; 100 µg/mL, time not given, three freeze-thaw cycles).
`CC(C)(C)ONc1nc(Nc2ccnc(C(F)(F)F)c2)nc(-c2cccc(C(F)(F)F)n2)n1` has a tissue/plasma ratio of 3.5 (female Balb/cA nude mice xenograft; oral, 54.14 mg/kg, Cmax; relative to: tumour over plasma).
`CC(C)[C@H](NC(=O)[C@@H]1CCCN1C(=O)[C@H](CCCNC(=N)N)NC(=O)[C@H](CS)NC(=O)[C@H](Cc1c[nH]c2ccccc12)NC(=O)[C@H](CCCNC(=N)N)NC(=O)[C@@H](Cc1ccccc1)NC(=O)[C@H](Cc1c[nH]cn1)NC(=O)[C@H](CCC(=O)O)NC(=O)[C@H](CS)NC(=O)[C@H](CS)NC(=O)CNC(=O)[C@@H]1CC(=O)N[C@@H](CCCNC(=N)N)C(=O)NCC(=O)N[C@@H](CC(=O)O)C(=O)N[C@H](Cc2ccc(O)cc2)C(=O)N1)C(N)=O` [technetium-99m labelled] has a tissue uptake of 0.05 ± 0.02 %ID/g (C57 mouse, female, B16/F1 melanoma, brain; intravenous, 0.037 MBq, 24 h).
`NCCCC(=O)OCC(=O)c1ccc(O)c(F)c1F.O=C(O)C(F)(F)F` — result for “quantum yield of rearranged acid”: 0.15 (photolysis at 300 nm; ammonium acetate buffered acetonitrile-water; pH 5.0, 0.01 mol/L buffer).
`Cc1ccc(/N=N/c2c(O)ccc3ccccc23)c(C)c1` has a stability deviation of 0.4% (rat whole blood; 16.0 µg/L, 30 days, -20 °C, long-term storage).
For `Brc1ccc(Nc2nc(NN=Cc3c[nH]c4ccccc34)nc(N3CCOCC3)n2)cc1`, the metabolic bioavailability was 100% (human liver microsomes; 0.1 µM, pH 7.4).
`CCCC1OC2CC3C4CCC5=CC(=O)C=CC5(C)C4C(O)CC3(C)C2(C(=O)COC(=O)CN(CC)CC)O1` (stereo not drawn) — result for “time to complete hydrolysis”: at most 2 h (rat lung homogenate; 200 µg/mL, 37 °C).
`CC[C@H](C)[C@H](NC(=O)[C@H](N)Cc1ccc(O)cc1)C(=O)N[C@H]1CSSC[C@@H](C(=O)N(C)[C@H](C(N)=O)[C@@H](C)CC)NC(=O)[C@H](CCCNC(=N)N)NC(=O)[C@H](Cc2c[nH]cn2)NC(=O)[C@H](C)NC(=O)CN(C)C(=O)[C@H](Cc2c[nH]c3ccccc23)NC(=O)[C@H](CC(=O)O)NC(=O)[C@H](CCC(N)=O)NC(=O)[C@H](Cc2cn(C)c3ccccc23)NC(=O)[C@H](C(C)C)NC1=O` gave a recovery of 100.8 ± 0.3% (UPLC-ESI-MS; cynomolgus monkey plasma; 3.58 µg/mL, 48 h, 4 °C, autosampler after SPE).
With `O=C([O-])CN1CCN(CC(=O)[O-])CCN(CC(=O)NC[C@H]2CC[C@H](C(=O)N[C@H](Cc3cnc4ccccc4c3)C(=O)NCCCC[C@H](NC(=O)N[C@@H](CCC(=O)O)C(=O)O)C(=O)O)CC2)CCN(CC(=O)[O-])CC1.[64Cu+2]` the effective dose was 3.6 mSv (human patient; 4 mCi).
Under “mean cell haemoglobin”, `CCNC(=O)OCc1c(COC(=O)NCC)c(-c2ccc(OC)cc2)n2c1Cc1ccccc1-2` is recorded as 15.4 ± 0.16 pg (BALB/c nude mice, blood; dose not given, day 10).
For `Cc1cc(O)c2c(c1)C(=O)c1cc(O)cc(O)c1C2=O.Cc1cc(O)c2c(c1)C(=O)c1cc(O)cc(O)c1C2=O.Cc1nc(C)c(C)nc1C`, the moisture absorption was under 0.06% (dynamic vapor sorption; 25 °C, 90% relative humidity).
For `Cc1ccc(-c2ccc(-c3cc4sccc4o3)cn2)nc1`, “fluorescence quantum yield” read 0.54 (aqueous HEPES buffer; pH 7.4, zinc-free ligand, with: quinine bisulfate reference).
With `O=C(O)C(Cc1ccccc1)N1CSC(=S)N(CCN(CCN2CN(C(Cc3ccccc3)C(=O)O)CSC2=S)CCN2CN(C(Cc3ccccc3)C(=O)O)CSC2=S)C1` (stereo not drawn) the CC50 was 105 µM (hemolysis; human erythrocytes 5% suspension; 3 h, 37 °C, 50% hemolysis).
`COCCOCCOCCOCCOCCOCCOCCOCCC(=O)NCCCc1cc2cc3nc(cc4[nH]c(cc5nc(c(OC)c1[nH]2)C(=O)C5(C)C)cc4CCc1ccc(C(=O)O)cc1)CC3(C)C`: “B band absorption maximum” 411 nm (water with 5% DMF; room temperature).
With `NCCCC(=O)OCC(=O)c1ccc(O)c(C(F)(F)F)c1.O=C(O)C(F)(F)F` the quantum yield was 0.16 (photolysis, refers to: GABA appearance; unbuffered water).
For `CC[C@H](C)[C@H](NC(=O)[C@H](CC(C)C)NC(=O)[C@H](Cc1c[nH]c2ccccc12)NC(=O)[C@H](C)NC(=O)[C@@H](NC(=O)[C@H](Cc1ccccc1)NC(=O)[C@H](CC(=O)O)NC(=O)[C@H](CCCNC(=N)N)NC(=O)[C@H](C)NC(=O)[C@H](C)NC(=O)[C@H](CC(C)C)NC(=O)[C@H](C)NC(=O)[C@H](CC(=O)O)NC(=O)[C@H](CC(C)C)NC(=O)[C@@H](NC(=O)[C@@H](NC(=O)[C@H](C)NC(=O)[C@H](CC(C)C)NC(=O)[C@H](CCC(=O)O)NC(=O)[C@H](CO)NC(=O)[C@H](CO)NC(=O)[C@H](Cc1ccccc1)NC(=O)[C@@H](NC(=O)CNC(=O)[C@H](CCC(=O)O)NC(=O)CNC(=O)[C@@H](N)Cc1c[nH]cn1)[C@@H](C)O)[C@@H](C)O)[C@@H](C)CC)[C@@H](C)CC)C(=O)N[C@@H](C)C(=O)N[C@H](C(=O)N[C@@H](CCCCN)C(=O)N[C@H](C(=O)N[C@H](C(=O)N[C@@H](CC(=O)O)C(=O)N[C@@H](CCCCN)C(=O)O)[C@@H](C)O)[C@@H](C)CC)[C@@H](C)O`, the terminal half-life was 2.6 h (immunoaffinity LC-MS/MS; healthy human subjects, plasma; intravenous infusion, 1 mg single dose, infused over 15 min).
Under “plasma free fraction”, `CC[C@@H](C)N([11CH3])C(=O)c1nc(-c2ccccc2)c2ccccc2n1` is recorded as 0.186 ± 0.001 (ultrafiltration; rhesus monkey, plasma; TSPO preblock scan).
`CCCC(CCC)NC(=O)c1ccc(O)c(O)c1` has a Cmax ratio of 1.63 (female Sprague-Dawley rats, plasma; oral, 50 mg/kg of parent drug; relative to: 50 over 20 mg/kg dose).
`CC(=O)N[C@@H](CCCCN)C(=O)N[C@@H](CCCCN)C(=O)N[C@@H](CCCCN)C(=O)N[C@@H](CCCCN)C(=O)N[C@@H](CCCCN)C(=O)N[C@@H](CCCCN)C(=O)N[C@@H](CCCCN)C(=O)N[C@@H](CCC(N)=O)C(=O)N[C@@H](Cc1c[nH]c2ccccc12)C(=O)N[C@@H](CCC(N)=O)C(=O)N[C@@H](Cc1c[nH]c2ccccc12)C(=O)N[C@@H](CCC(N)=O)C(=O)N[C@@H](Cc1c[nH]c2ccccc12)C(=O)N[C@@H](CCC(N)=O)C(=O)N[C@@H](Cc1c[nH]c2ccccc12)C(=O)N[C@@H](CCC(N)=O)C(=O)N[C@@H](Cc1c[nH]c2ccccc12)C(=O)N[C@@H](CCC(N)=O)C(=O)N[C@@H](Cc1c[nH]c2ccccc12)C(N)=O`: “number of subunits per assembly” 14 (sedimentation velocity AUC; Tris buffer 20 mM; 20 µM, 24 h, pH 7.4, 4 °C).
`COc1cc(-c2nc3ccccc3s2)cc(CN2CCN(CC(=O)OC(C)C)CCN(CC(=O)OC(C)C)CC2)c1O` gave a pKa2 of 6.48 (UV-Vis pH titration; 25 °C, ionic strength 0.1 M NaCl).
`Cn1c(=O)oc2ccc(-c3ccc(CC(C#N)NC(=O)C4CNCCCO4)c(F)c3)cc21` (stereo not drawn) — result for “treatment-emergent adverse event incidence”: 7.4% (refers to: lymphadenopathy; human volunteers; oral).
The AUC(0-tlast) of `CC(C)C[C@@H](NC(=O)[C@H](NC(=O)[C@H]1CCCN1)[C@H](C)O)C(=O)N[C@H](Cc1c[nH]cn1)C(=O)N[C@@H](C(=O)N[C@H](Cc1c[nH]cn1)C(=O)N[C@H](CC(N)=O)C(=O)N[C@H](CCCNC(=N)N)C(=O)N[C@H](CCCNC(=N)N)C(=O)N[C@H](CCCNC(=N)N)C(=O)N[C@H](CCCNC(=N)N)C(=O)N[C@H](CCCNC(=N)N)C(N)=O)[C@H](C)O` is reported as 614 ± 592 ng·h/mL (Beagle dog, CSF; oral, 50 mg/kg).
`Oc1ccc2ccccc2c1/N=N/c1ccc(/N=N/c2ccccc2)cc1` has a stability deviation of 0.8% (rat whole blood; 16.0 µg/L, 30 days, -20 °C, long-term storage).
For `CCC(=O)N[C@@H](C)C(=O)OCC(=O)N[C@@H](C)C(=O)O`, the depolymerization half-life was 88.6 h (water; pH 7, 25 °C).
`Oc1cccc(-c2cccc(O)n2)n1.[Cl-].[Cl-].[Ru+2].c1cnc2c(c1)ccc1cccnc12.c1cnc2c(c1)ccc1cccnc12` has a logD of 1 (shake flask; octanol/phosphate buffer; pH 6.00).
With `O=C(C[c-]1cccc1)Oc1ccc(-n2cccc2)cc1.[Fe+2].c1cc[cH-]c1` the Epa was 503 mV (cyclic voltammetry; acetonitrile; relative to: Ag/AgCl).
For `NCCCC(=O)OCC(=O)c1ccc(O)cc1F.O=C(O)C(F)(F)F`, the quantum yield was 0.06 (photolysis, refers to: disappearance of compound; aqueous HEPES buffer with LiClO4; pH 8.2).
Under “conversion to pyridinium salt”, `C#Cc1cccc(N(C(=O)CCl)C(C(=O)NC2CCCCC2)c2ccccn2)c1` (racemic) is recorded as over 50% (HPLC-MS; DPBS; 3 h, 37 °C).
`NCCCC(=O)OCC(=O)c1cc(F)c(O)c(F)c1.O=C(O)C(F)(F)F` gave a quantum yield of 0.04 (photolysis, refers to: rearranged acid appearance; aqueous HEPES buffer with LiClO4; pH 7.3).
With `CC(=O)[CH](C(C)=O)[Pt-2]1([S+](C)C)[O]C(C)=CC(C)=[O+]1` (stereo not drawn) the fecal excretion was 2.5% (refers to: platinum; rat, feces; 24 h; relative to: dose).
For `NC[C@@H](C(=O)Nc1ccc(-c2cn[nH]c2)cc1)c1ccccc1`, “conjunctival redness score” read 0 (OECD 405 eye irritation; New Zealand White rabbit, eye; topical, 0.1%, 32 h (day 2), scale 0 to 3; direction not given).
`COC(=O)c1ccc(-c2cn(Cc3cc(Cl)ccc3O[11CH3])nn2)cc1` — result for “volume of distribution”: 0.455 mL/cm³ (PET, Logan plot; rhesus monkey, hippocampus; dose not given, 40 min).
`O=C(NCCCN(CCCCN(CCCNC(=O)c1cccc(=O)n1[O-])C(=O)c1cccc(=O)n1[O-])C(=O)c1cccc(=O)n1[O-])c1cccc(=O)n1[O-].[89Zr+4]` has an intact complex of 98.3 ± 2.4% (radio-TLC; PBS; 7 d, pH 7.4, 37 °C, with: Zn^2+ 10-fold excess).
For `CCCC[C@H](NC(=O)CNC(=O)CNC(=O)CN1CCN(CC(=O)O)CCN(CC(=O)O)CCN(CC(=O)O)CC1)C(=O)N[C@H]1CC(=O)NCCCC[C@@H](C(N)=O)NC(=O)[C@H](Cc2c[nH]c3ccccc23)NC(=O)[C@H](CCCNC(=N)N)NC(=O)[C@@H](Cc2ccccc2)NC(=O)[C@H](Cc2c[nH]cn2)NC1=O` [copper-64 labelled], the uptake ratio was 1.2 (female C57 mouse, B16/F1 melanoma; intravenous, 0.037 MBq, 4 h; relative to: tumour over lung).
Under “fluorescence quantum yield”, `COc1ccc2cc(-c3ccc(-c4ccc(C)cn4)nc3)oc2c1` is recorded as 0.7 (CHCl3; with: quinine bisulfate reference).
The emission maximum of `CCOC(=O)c1[nH]c(C)c(/C=C/c2c(I)c(C)c3n2[B-](F)(F)[N+]2=C(C)C(I)=C(C)C2=C3c2cc(OC)cc(OC)c2)c1C` is reported as 632 nm (THF).
Under “absorbed radiation dose”, `[11CH3]c1ccc2nc(C3CCC3)n(-c3ccc4[nH]ncc4c3)c2n1` is recorded as 2.9 µSv/MBq (human female, thymus).
`COc1ccc(OC)c(/C(=C\c2ccc(O)c(O)c2)C(=O)NCCc2ccc(O)cc2)c1` — result for “conversion to FLZ”: about 30% (mouse heparinised whole blood; 2 µg/mL, 120 min).

For quick reference, copied from above:
`COC(=O)c1ccc(-c2cn(Cc3cc(Cl)ccc3O[11CH3])nn2)cc1` — result for “volume of distribution”: 0.455 mL/cm³ (PET, Logan plot; rhesus monkey, hippocampus; dose not given, 40 min).
For `CCC(=O)N[C@@H](C)C(=O)OCC(=O)N[C@@H](C)C(=O)O`, the depolymerization half-life was 88.6 h (water; pH 7, 25 °C).
`Cc1ccc(/N=N/c2c(O)ccc3ccccc23)c(C)c1` has a stability deviation of 0.4% (rat whole blood; 16.0 µg/L, 30 days, -20 °C, long-term storage).
The remaining compound of `COc1cc(NC(C)=O)c2c(c1O)-c1c(OC)c(OC)cc3c1C(C2)N(C)CC3` (stereo not drawn) is reported as 105 ± 3.8% (rat heart homogenate; 100 µg/mL, time not given, three freeze-thaw cycles).
